Experimental data from different studies.
Protocols differ between the studies behind these lines. Values joined by “and” are separate records of one study, mostly repeats; a detail may differ. pEC50, pIC50: −log10 of the molar value. ≈ marks a conversion by molar mass, not a printed value.

CC1=C(C)/C(=C/c2cc(Cc3ccc(OC(F)(F)F)cc3)c(C)[nH]2)N=C1c1ccc[nH]1.Cl — parasitaemia reduction (Plasmodium yoelii; CF1 mice; oral, 10 mg/kg daily for 4 days, day 5; baseline: vehicle): 100%
Cc1c(C)c2c(c(C)c1O)CC[C@](C)(C(=O)NC1CCC(CN3CCC(c4c[nH]c5ccccc45)CC3)CC1)O2 (stereo partly shown) — pIC50 (Plasmodium yoelii; 17XL; 384-well): < 4.70
CS(=O)(=O)CCCn1c(Cn2c(=O)n(CC(F)(F)F)c3ccncc32)cc2cc(Cl)ccc21 — LS mean viral load change (respiratory syncytial virus; RT-qPCR; hospitalized infants 1-24 months, nasal swab; oral, 9, 6 or 5 mg/kg daily, day 4, high dose by age cohort; baseline: baseline): -3.4 log10 copies/mL
CC(=O)N1CCN(c2ccc(OCC3COC(Cn4ccnc4)(c4ccc(Cl)cc4Cl)O3)cc2)CC1 (stereo not shown) — MFC (Candida albicans; 56467; 48 h, 30 °C): > 64 µM
CN[C@H](CC(C)C)C(=O)N[C@H]1C(=O)N[C@@H](CC(N)=O)C(=O)N[C@H]2C(=O)N[C@H]3C(=O)N[C@H](C(=O)N[C@H](C(=O)O)c4cc(O)cc(O)c4-c4cc3ccc4O)[C@H](O)c3ccc(c(Cl)c3)Oc3cc2cc(c3O[C@@H]2O[C@H](CO)[C@@H](O)[C@H](O)[C@H]2O[C@H]2C[C@](C)(N)[C@H](O)[C@H](C)O2)Oc2ccc(cc2Cl)[C@H]1O — MBC (Staphylococcus aureus; CAAS-2019-CAAS-2019-17 clinical blaZ-resistant isolate, 25% plasma): 8 µg/mL (≈ 5.52 µM)
CC[C@H](C)[C@H](NC(=O)[C@H](C)NC(=O)[C@H](CCCCN)NC(=O)[C@H](CC(C)C)NC(=O)[C@H](C)NC(=O)[C@@H](NC(=O)[C@H](Cc1c[nH]cn1)NC(=O)[C@H](CC(C)C)NC(=O)[C@@H](NC(=O)[C@@H](NC(=O)[C@H](CCCCN)NC(=O)[C@H](C)NC(=O)[C@H](C)NC(=O)[C@H](CO)NC(=O)[C@H](CCCCN)NC(=O)[C@H](Cc1ccccc1)NC(=O)[C@@H](NC(=O)[C@H](CCCCN)NC(=O)[C@H](CC(C)C)NC(=O)[C@H](Cc1ccccc1)NC(=O)[C@H](CO)NC(=O)[C@H](CCCCN)NC(=O)[C@H](Cc1c[nH]c2ccccc12)NC(=O)[C@H](CCCCN)NC(C)=O)[C@@H](C)O)[C@@H](C)O)C(C)C)[C@@H](C)O)C(=O)N[C@@H](CO)C(=O)N[C@@H](CO)C(N)=O — MIC range (Pseudomonas aeruginosa; ATCC 27853): 4 µg/mL (≈ 1.36 µM)
CCCN(CCC)CC(O)COc1ccccc1C(=O)Nc1ccccc1 (stereo not shown) — inhibition (Plasmodium yoelii; oxygen consumption; 17XL; 2 µM): 20%
C[C@@H]1O[C@@H](O[C@H]2C[C@@H](O)[C@]3(CO)[C@H]4[C@H](O)C[C@]5(C)[C@@H](C6=CC(=O)OC6)CC[C@]5(O)[C@@H]4CC[C@]3(O)C2)[C@H](O)[C@H](O)[C@H]1O — adult length (Oncopeltus fasciatus; diet, concentration not given): 10.1 mm
COC1=CC(c2ccc[nH]2)=N/C1=C\c1[nH]c(Cc2ccccc2)cc1Cc1ccccc1.Cl — parasitaemia reduction (Plasmodium yoelii; CF1 mice; oral, 25 mg/kg daily for 4 days, day 5; baseline: vehicle): 100%
COc1cccc(C(=O)NN(C(=O)c2cc(C)cc(C)c2)C(C)(C)C)c1C — egg number (Anopheles funestus; FUMOZ, resistant; tarsal contact, 367 mg/m^2, added: RME 100 mg/m^2; baseline: control): decreased
O=C(CCCN1CCC(O)(c2ccc(Cl)cc2)CC1)c1ccc(Br)cc1 — pIC50 (Tetrahymena pyriformis and Klebsiella pneumoniae; virulence in co-culture): 5.94
C[C@@H](O)[C@H]1C(=O)N2C(C(=O)O)=C(S[C@@H]3CN[C@H](C(=O)N(C)C)C3)[C@H](C)[C@H]12 — lung bacterial burden difference (Acinetobacter baumannii; ATCC 19606, rat lung infection, lung; 30 mg/kg): -1.41 log10 CFU/g and -1.23 log10 CFU/g
COC1=CC(c2ccc[nH]2)=N/C1=C\c1[nH]c(C)cc1Cc1ccccc1.Cl — parasitaemia reduction (Plasmodium yoelii; CF1 mice; oral, 10 mg/kg daily for 4 days, day 5; baseline: vehicle): 100%
CCOC(=O)COc1ccc2ccc3oc([N+](=O)[O-])cc3c2c1 — MIC90 (Klebsiella aerogenes; REMA): > 32 µg/mL
Cc1cc(-c2cn[nH]c2-c2cccc(OCc3cccc(C#N)c3)c2)cc(C)n1 — antibacterial activity (aerobic Gram-positive pathogens; concentration not given): inactive
Cc1cc2cc(O)cc(O)c2c(=O)o1 — pIC50 (Tetrahymena pyriformis and Klebsiella pneumoniae; virulence in co-culture): 5.02
Cn1c(=O)ccc2ccc(F)c(CCNC[C@H]3CN(c4cnc5c(n4)NC(=O)CO5)C(=O)O3)c21 — MIC50 (Ureaplasma spp.): < 0.015 µg/mL
CNC(C)C1CCC(N)C(OC2C(N)CC(N)C(OC3OCC(C)(O)C(NC)C3O)C2O)O1 (stereo not shown) — survival (Acinetobacter baumannii; 19606, biofilm; 50 µg/mL, added: HNP1 8 µM): 11% and 16.1% and 8.5% and 12.7% and 10.2%
Nc1ncnc2c1ncn2[C@@H]1O[C@@H]2COP(=O)(O)O[C@H]3[C@@H](O)[C@H](n4cnc5c(=O)[nH]cnc54)O[C@@H]3COP(=O)(O)O[C@H]2[C@H]1O — fold enrichment (West Nile virus; RNA sequencing Reactome analysis, measured: Signal Transduction (R-HSA-162582); HFF-1; concentration not given, upregulated pathways, added: West Nile virus infection; baseline: WNV-infected without compound): 1.46
COC1=CC(c2ccc[nH]2)=N/C1=C\c1[nH]c(C)cc1-c1ccc(OC(F)(F)F)cc1.Cl — parasitaemia reduction (Plasmodium yoelii; CF1 mice; oral, 10 mg/kg daily for 4 days, day 5; baseline: vehicle): 100%
C=CC1(C)CC(OC(=O)CSCCCCCN(C)C)C2(C)C(C)CCC3(CCC(=O)C32)C(C)C1O (stereo not shown) — pIC50 (Tetrahymena pyriformis and Klebsiella pneumoniae; virulence in co-culture): 5.19
O=[N+]([O-])c1cc2c(ccc3c2ccc2cc([N+](=O)[O-])oc23)o1 — MIC90 (Mycolicibacterium aurum; REMA; ATCC 23366): 0.5 µg/mL (≈ 1.68 µM)
O=c1oc2cccnc2c(=O)n1Cc1ccc([N+](=O)[O-])o1 — pIC50 (Tetrahymena pyriformis and Klebsiella pneumoniae; virulence in co-culture): 5.12
COC(=O)N[C@H](C(=O)N1CCC[C@H]1c1ncc(-c2ccc(-c3ccc(-c4cnc([C@@H]5CCCN5C(=O)[C@@H](NC(=O)OC)C(C)C)[nH]4)cc3)cc2)[nH]1)C(C)C — combination index (Hepatitis C virus; replicon cells; 50% effect level, added: IFN-alpha, ratio 2.5:1): 0.67
CN(C)[C@@H]1C(O)=C(C(N)=O)C(=O)[C@@]2(O)C(O)=C3C(=O)c4c(O)cccc4[C@@](C)(O)[C@H]3C[C@@H]12 — survival (Acinetobacter baumannii; 19606, biofilm; 25 µg/mL, added: HNP1 8 µM): 86.5% and 80.8% and 80.4% and 79.2% and 77.1% and 88.2%
Fc1ccc(Cn2nnc3c2CCN(c2ccc(C(F)(F)F)cc2)C3)cc1 — pEC50 (human adenovirus 2; viral replication; HEL): < 4.00
CC1(C(=O)O)CCC(C(=O)Nc2ccc(Nc3ccccc3)cc2)C1(C)C (stereo not shown) — pIC50 (Tetrahymena pyriformis and Klebsiella pneumoniae; virulence in co-culture): 6.24
COc1ccc2ccc3oc([N+](=O)[O-])cc3c2c1Br — MIC90 (Mycolicibacterium aurum; REMA; ATCC 23366): 0.25 µg/mL (≈ 0.776 µM)
CC[C@H](C)[C@H](NC(=O)[C@H](CC(N)=O)NC(=O)[C@H](Cc1ccccc1)NC(=O)[C@H](CCCNC(=N)N)NC(=O)[C@H](CCCNC(=N)N)NC(=O)[C@@H](N)CCCCN)C(=O)N[C@@H](CCCCN)C(=O)N[C@@H](CC(C)C)C(=O)N[C@@H](Cc1c[nH]c2ccccc12)C(=O)N[C@@H](CCCCN)C(=O)N[C@H](C(=O)N[C@@H](Cc1ccccc1)C(=O)O)[C@@H](C)O — MBC (Staphylococcus haemolyticus): 32 µg/mL (≈ 19.5 µM)
N#Cc1ccc2c(ccc3oc([N+](=O)[O-])cc32)c1 — MIC90 (Mycolicibacterium aurum; REMA; ATCC 23366): > 32 µg/mL
Cc1cc(C)cc(NC(=O)Nc2ccc(N3CCCCC3)cc2)c1 — pIC50 (Tetrahymena pyriformis and Klebsiella pneumoniae; virulence in co-culture): 5.82
CCc1c([N+](=O)[O-])oc2ccc3ccccc3c12 — MIC90 (Mycolicibacterium aurum; REMA; ATCC 23366): 1 µg/mL (≈ 4.15 µM)
[O-][N+]1=C(c2ccc(Cl)cc2)C2=NCCN2c2ccccc21 — MIC90 (Prevotella spp.; bacterial growth): ≤ 0.06 µg/mL
CC1(C)SC2C(NC(=O)C(NC(=O)C3=C(O)C(c4ccccc4)NC3=O)c3ccccc3)C(=O)N2C1C(=O)O (stereo not shown) — MIC (Escherichia coli; broth microdilution; isolate IU, CTX-M-14, TEM-1; no clavulanic acid): > 200 µg/mL
CCCCCCCSc1ccc(CC(C)NCC(O)c2cccc(Cl)c2)cc1 (stereo not shown) — pIC50 (Plasmodium yoelii; 17XL; 384-well): < 4.70
Cc1c2c(nn1C)CSCc1cc(n(C)n1)CSc1cc(c3ccccc3c1)OCCCc1c(C(=O)O)n(C)c3c-2c(Cl)ccc13 — downregulation (Staphylococcus aureus; label-free quantitative proteomics, measured: TdcB protein; SA113; 3.125 µM; baseline: DMSO): 4.7 fold
N=C(N)c1ccc(OCc2cc(COc3ccc(C(=N)N)cc3)cc(-c3ccccc3)c2)cc1 — FICI (Escherichia coli; checkerboard; mcr-1 polymyxin-resistant; unit not given, added: rifampicin; lower = stronger synergy): 0.047

A few entries again:
C[C@@H]1O[C@@H](O[C@H]2C[C@@H](O)[C@]3(CO)[C@H]4[C@H](O)C[C@]5(C)[C@@H](C6=CC(=O)OC6)CC[C@]5(O)[C@@H]4CC[C@]3(O)C2)[C@H](O)[C@H](O)[C@H]1O — adult length (Oncopeltus fasciatus; diet, concentration not given): 10.1 mm
COC1=CC(c2ccc[nH]2)=N/C1=C\c1[nH]c(Cc2ccccc2)cc1Cc1ccccc1.Cl — parasitaemia reduction (Plasmodium yoelii; CF1 mice; oral, 25 mg/kg daily for 4 days, day 5; baseline: vehicle): 100%
COc1cccc(C(=O)NN(C(=O)c2cc(C)cc(C)c2)C(C)(C)C)c1C — egg number (Anopheles funestus; FUMOZ, resistant; tarsal contact, 367 mg/m^2, added: RME 100 mg/m^2; baseline: control): decreased
O=C(CCCN1CCC(O)(c2ccc(Cl)cc2)CC1)c1ccc(Br)cc1 — pIC50 (Tetrahymena pyriformis and Klebsiella pneumoniae; virulence in co-culture): 5.94
